Measurements collected from several papers.
A part holds a random share of what one study measured. pIC50: −log10 of the molar value.
UniProt P07949, sequence (whole entry, looked up): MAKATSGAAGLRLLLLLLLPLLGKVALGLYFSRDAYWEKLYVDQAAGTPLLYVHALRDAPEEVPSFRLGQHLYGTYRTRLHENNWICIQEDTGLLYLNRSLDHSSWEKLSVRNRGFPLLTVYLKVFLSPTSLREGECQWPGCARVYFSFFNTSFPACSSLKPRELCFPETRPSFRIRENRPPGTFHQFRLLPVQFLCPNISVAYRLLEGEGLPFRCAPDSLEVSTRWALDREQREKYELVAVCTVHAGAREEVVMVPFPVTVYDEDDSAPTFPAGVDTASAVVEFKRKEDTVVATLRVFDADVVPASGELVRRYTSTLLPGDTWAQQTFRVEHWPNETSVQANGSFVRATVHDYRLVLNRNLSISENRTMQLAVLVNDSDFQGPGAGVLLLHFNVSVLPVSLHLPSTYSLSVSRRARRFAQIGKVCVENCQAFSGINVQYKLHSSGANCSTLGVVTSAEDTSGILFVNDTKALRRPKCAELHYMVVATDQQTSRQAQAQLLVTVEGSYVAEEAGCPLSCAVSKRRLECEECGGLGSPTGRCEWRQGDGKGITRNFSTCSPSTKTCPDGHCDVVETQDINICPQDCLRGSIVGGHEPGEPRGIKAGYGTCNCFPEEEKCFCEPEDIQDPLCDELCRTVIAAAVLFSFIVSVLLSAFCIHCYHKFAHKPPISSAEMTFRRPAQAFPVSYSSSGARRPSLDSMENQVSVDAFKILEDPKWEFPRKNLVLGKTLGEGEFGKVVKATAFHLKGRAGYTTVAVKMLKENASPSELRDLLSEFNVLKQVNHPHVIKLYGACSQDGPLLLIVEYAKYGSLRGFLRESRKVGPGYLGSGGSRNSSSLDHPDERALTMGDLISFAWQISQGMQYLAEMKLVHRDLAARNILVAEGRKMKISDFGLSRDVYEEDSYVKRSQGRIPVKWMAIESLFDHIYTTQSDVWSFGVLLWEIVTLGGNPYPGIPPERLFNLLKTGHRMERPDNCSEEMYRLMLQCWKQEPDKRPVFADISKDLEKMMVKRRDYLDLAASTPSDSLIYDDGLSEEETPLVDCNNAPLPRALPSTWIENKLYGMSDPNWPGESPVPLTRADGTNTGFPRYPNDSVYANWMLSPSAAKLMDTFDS
UniProt Q9NRP7, sequence (whole entry, looked up): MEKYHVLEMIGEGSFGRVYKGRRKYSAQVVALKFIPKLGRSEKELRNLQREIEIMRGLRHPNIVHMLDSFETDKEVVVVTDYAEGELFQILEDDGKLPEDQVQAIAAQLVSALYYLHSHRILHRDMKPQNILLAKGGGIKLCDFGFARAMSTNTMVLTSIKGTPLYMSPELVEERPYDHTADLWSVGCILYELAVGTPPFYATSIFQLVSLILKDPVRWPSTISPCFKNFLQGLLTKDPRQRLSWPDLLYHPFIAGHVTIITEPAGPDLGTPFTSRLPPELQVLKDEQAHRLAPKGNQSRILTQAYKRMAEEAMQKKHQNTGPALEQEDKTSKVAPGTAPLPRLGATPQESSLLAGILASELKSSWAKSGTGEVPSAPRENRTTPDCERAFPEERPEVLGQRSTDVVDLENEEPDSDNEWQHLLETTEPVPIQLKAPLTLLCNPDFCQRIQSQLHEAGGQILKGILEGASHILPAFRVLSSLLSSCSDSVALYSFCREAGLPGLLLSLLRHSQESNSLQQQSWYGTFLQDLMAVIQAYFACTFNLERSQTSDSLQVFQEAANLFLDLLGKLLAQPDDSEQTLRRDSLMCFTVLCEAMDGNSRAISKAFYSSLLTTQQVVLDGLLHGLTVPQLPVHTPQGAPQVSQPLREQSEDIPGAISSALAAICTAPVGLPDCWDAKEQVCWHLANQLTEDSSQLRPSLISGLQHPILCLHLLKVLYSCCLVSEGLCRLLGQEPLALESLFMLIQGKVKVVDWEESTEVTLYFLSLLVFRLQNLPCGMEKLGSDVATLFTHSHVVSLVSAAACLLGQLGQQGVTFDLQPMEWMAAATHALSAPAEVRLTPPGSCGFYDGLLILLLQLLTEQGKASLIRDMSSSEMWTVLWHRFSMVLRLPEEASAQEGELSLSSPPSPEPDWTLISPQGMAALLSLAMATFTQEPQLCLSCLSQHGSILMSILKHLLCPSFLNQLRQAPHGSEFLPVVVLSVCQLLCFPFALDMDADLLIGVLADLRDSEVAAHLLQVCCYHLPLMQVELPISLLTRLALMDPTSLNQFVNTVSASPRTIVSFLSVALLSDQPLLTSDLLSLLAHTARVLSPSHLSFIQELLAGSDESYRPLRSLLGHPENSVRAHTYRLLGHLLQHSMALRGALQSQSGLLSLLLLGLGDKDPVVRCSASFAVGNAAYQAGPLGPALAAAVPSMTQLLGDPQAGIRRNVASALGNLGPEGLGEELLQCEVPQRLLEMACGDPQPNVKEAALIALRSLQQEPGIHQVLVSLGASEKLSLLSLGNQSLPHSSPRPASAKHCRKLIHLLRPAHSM
UniProt Q15139, sequence (whole entry, looked up): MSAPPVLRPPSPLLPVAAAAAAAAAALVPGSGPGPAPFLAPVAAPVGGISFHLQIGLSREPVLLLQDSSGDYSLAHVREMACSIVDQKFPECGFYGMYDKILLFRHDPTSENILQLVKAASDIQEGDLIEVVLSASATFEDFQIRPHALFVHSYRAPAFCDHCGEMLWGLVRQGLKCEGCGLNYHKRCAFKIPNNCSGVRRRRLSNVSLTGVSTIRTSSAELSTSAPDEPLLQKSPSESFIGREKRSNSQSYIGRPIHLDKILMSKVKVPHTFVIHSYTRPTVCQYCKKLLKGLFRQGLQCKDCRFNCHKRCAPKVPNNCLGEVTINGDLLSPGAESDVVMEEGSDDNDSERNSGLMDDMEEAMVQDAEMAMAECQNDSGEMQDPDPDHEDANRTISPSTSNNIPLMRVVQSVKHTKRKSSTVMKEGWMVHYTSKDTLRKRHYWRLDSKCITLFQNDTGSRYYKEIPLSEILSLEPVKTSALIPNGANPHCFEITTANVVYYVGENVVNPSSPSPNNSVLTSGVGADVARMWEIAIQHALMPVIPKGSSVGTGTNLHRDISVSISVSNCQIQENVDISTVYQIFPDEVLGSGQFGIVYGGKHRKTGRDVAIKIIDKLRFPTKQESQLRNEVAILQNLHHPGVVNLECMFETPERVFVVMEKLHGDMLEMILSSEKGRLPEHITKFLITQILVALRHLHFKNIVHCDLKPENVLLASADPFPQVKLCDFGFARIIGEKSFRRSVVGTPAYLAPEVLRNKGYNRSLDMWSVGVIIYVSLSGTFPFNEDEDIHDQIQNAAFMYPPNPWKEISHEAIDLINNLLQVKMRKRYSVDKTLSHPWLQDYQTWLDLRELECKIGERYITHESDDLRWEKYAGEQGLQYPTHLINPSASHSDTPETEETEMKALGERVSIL
UniProt P50750, sequence (whole entry, looked up): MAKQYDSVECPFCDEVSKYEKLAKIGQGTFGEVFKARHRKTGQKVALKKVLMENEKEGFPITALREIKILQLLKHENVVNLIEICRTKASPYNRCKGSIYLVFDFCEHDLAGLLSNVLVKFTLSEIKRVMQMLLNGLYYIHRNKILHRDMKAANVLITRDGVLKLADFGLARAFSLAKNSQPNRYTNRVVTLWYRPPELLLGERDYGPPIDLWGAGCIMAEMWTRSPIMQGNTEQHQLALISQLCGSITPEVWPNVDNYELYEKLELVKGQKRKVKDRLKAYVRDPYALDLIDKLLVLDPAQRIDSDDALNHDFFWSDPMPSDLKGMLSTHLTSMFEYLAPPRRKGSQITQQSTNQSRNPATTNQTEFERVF

Study 1
Target: Mitogen-activated protein kinase kinase kinase 11 (MAP3K11, Homo sapiens, UniProt Q16584)
UniProt Q16584, sequence (whole entry, looked up): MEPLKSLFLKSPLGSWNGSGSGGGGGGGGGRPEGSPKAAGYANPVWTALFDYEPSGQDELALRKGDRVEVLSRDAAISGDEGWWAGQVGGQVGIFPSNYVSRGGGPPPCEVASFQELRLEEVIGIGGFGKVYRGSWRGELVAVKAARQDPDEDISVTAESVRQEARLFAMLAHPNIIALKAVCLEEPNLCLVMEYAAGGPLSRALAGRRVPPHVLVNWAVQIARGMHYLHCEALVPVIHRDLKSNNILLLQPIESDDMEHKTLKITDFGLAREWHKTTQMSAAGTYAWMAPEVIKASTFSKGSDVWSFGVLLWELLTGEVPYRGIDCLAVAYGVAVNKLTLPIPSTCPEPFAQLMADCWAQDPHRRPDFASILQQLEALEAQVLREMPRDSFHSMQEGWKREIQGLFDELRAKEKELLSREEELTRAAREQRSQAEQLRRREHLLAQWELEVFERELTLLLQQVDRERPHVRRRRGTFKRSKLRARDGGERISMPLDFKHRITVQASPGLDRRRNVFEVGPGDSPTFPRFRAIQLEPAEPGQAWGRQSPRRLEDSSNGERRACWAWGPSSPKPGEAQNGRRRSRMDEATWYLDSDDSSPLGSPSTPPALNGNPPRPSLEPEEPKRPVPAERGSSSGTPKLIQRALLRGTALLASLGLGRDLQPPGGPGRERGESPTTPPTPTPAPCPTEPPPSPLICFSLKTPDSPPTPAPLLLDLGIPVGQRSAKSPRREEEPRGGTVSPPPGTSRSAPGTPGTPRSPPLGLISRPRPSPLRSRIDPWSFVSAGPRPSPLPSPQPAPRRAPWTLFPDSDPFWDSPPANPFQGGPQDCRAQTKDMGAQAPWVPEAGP
Read-out: enzyme activity
Mode: inhibitor
Tested at: 0.5 µM
Baseline: control
SMILES	remaining activity [%]
CS(=O)(=O)CCNCc1ccc(-c2ccc3ncnc(Nc4ccc(OCc5cccc(F)c5)c(Cl)c4)c3c2)o1	106
CC(=O)O/N=C1/C(c2c(O)[nH]c3cc(Br)ccc23)=Nc2ccccc21	42.5
CCOc1cc2ncnc(Nc3cccc(Br)c3)c2cc1OCC	93
COc1cc2ncnc(Nc3ccc(OCc4ccccc4)cc3)c2cc1OC	92.2
O=C(Nc1ccc(Cl)cc1)c1ccccc1NCc1ccncc1	89
Cn1cnc2cc3c(Nc4cccc(Br)c4)ncnc3cc21	94.8
Cc1nc(Nc2ncc(C(=O)Nc3c(C)cccc3Cl)s2)cc(N2CCN(CCO)CC2)n1	87.5
Nc1[nH]nc2nnc(-c3c(-c4ccccc4)nn4ccccc34)cc12	94.3
COc1ccc(-c2cnc3c(-c4ccsc4)cnn3c2)cc1	51.9
CC(C)c1nn(-c2c(Cl)cccc2Cl)c2nc(Cc3ccc(OCCO)cc3)[nH]c(=O)c12	101
COc1cc2ncc(-c3ccccc3)nc2cc1OC	86.8
COc1ccc(Cl)cc1NC(=O)Nc1cc(C)nc2ccccc12	89

Study 2
Cell line: Huh-7
Tested at: 10 µM
Time: 24 h
Compound	viability [%]
CCc1cccc2c3c([nH]c12)C(CC)(CC(=O)O)OCC3 (stereo not drawn)	105
CCN(CC)C(C)CN1c2ccccc2Sc2ccccc21 (stereo not drawn)	93.5
Cc1ccsc1/C=C/C1=NCCCN1C	100
C[C@]12CC[C@@H]3c4ccc(O)cc4CC[C@H]3[C@@H]1C[C@@H](O)[C@@H]2O	98.4
N[C@@H](Cc1cc(I)c(Oc2cc(I)c(O)c(I)c2)c(I)c1)C(=O)O	99.4
CS(=O)(=O)c1ccc([C@@H](O)[C@@H](CO)NC(=O)C(Cl)Cl)cc1	96
CC(=O)NS(=O)(=O)c1ccc(N)cc1	99.7
O=C1OC(c2ccc(O)cc2)(c2ccc(O)cc2)c2ccccc21	97.3
COc1cc(Cc2cnc(N)nc2N)cc(OC)c1OC	103
CC[C@H](C)C(=O)O[C@H]1C[C@@H](C)C=C2C=C[C@H](C)[C@H](CC[C@@H]3C[C@@H](O)CC(=O)O3)[C@H]21	91.9
C[C@@H]1O[C@@H](OC[C@H]2O[C@@H](Oc3c(-c4ccc(O)c(O)c4)oc4cc(O)cc(O)c4c3=O)[C@H](O)[C@@H](O)[C@@H]2O)[C@H](O)[C@H](O)[C@H]1O	89.4
CC1(C)S[C@@H]2[C@H](N3C(=O)[C@@H](c4ccccc4)NC3(C)C)C(=O)N2[C@H]1C(=O)O	100

Study 3
Target: Synaptic vesicular amine transporter (SLC18A2, Homo sapiens, UniProt Q05940)
UniProt Q05940, sequence (whole entry, looked up): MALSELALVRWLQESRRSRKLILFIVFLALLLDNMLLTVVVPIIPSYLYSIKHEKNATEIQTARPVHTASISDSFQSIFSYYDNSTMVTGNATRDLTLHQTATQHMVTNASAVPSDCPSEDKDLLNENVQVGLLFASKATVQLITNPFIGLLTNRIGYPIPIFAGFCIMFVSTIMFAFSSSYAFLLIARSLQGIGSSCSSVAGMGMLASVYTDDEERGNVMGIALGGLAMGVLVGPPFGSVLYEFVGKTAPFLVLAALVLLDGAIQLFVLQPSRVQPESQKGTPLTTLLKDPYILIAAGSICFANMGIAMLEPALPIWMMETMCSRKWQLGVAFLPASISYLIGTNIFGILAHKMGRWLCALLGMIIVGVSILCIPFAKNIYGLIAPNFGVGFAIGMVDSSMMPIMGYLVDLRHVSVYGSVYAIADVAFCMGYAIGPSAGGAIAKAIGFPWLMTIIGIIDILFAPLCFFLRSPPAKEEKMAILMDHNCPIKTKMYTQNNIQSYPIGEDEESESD
Mode: inhibitor
Setting: literature data
SMILES	pIC50
C[C@H](Cc1cc2c(c(C(N)=O)c1)N(CCCO)CC2)NCCOc1ccccc1OCC(F)(F)F	5.79
COC(=O)[C@H]1[C@H]2C[C@@H]3c4[nH]c5cc(OC)ccc5c4CCN3C[C@H]2C[C@@H](OC(=O)/C=C/c2cc(OC)c(OC)c(OC)c2)[C@@H]1OC	7.80
COc1ccc(CC(C)(C)NC[C@H](O)c2cc(O)cc3c2OCC(=O)N3)cc1	5.84
CC1=C(/C=C/C(C)=C/C=C/C(C)=C\C(=O)O)C(C)(C)CCC1	< 5.00
CCc1nc(C(N)=O)c(Nc2ccc(N3CCC(N4CCN(C)CC4)CC3)c(OC)c2)nc1NC1CCOCC1	5.77
CN(C)CCCN1c2ccccc2CCc2ccccc21	< 5.00
CCOc1ccccc1OCCN[C@H](C)Cc1ccc(OC)c(S(N)(=O)=O)c1	5.73
O=C1[C@@H]2[C@H]3CC[C@H](C3)[C@@H]2C(=O)N1C[C@@H]1CCCC[C@H]1CN1CCN(c2nsc3ccccc23)CC1	6.52
COc1cc2c(cc1OC)CC(=O)N(CCCN(C)C[C@H]1Cc3cc(OC)c(OC)cc31)CC2	< 5.00
CS(=O)(=O)CCNCc1ccc(-c2ccc3ncnc(Nc4ccc(OCc5cccc(F)c5)c(Cl)c4)c3c2)o1	5.26
OC(c1cc(C(F)(F)F)nc2c(C(F)(F)F)cccc12)C1CCCCN1 (stereo not drawn)	5.78
CC(=O)NC[C@H]1CN(c2ccc(N3CCOCC3)c(F)c2)C(=O)O1	< 5.00
CCCN1C[C@H](CSC)C[C@@H]2c3cccc4[nH]cc(c34)C[C@H]21	< 5.00

Study 4
SMILES: Cn1nc(C(=O)NCc2ccc(C(=O)O)cc2)cc1-c1ccc2[nH]ccc2c1
Technique: competition with immobilised ligand
Tested at: 0.1 µM
target	assay	remaining binding [%]
MARK3 (Homo sapiens, UniProt P27448)	cell-free assay	81
EPHB4 (Homo sapiens, UniProt P54760)	cell-free assay	100
PIK3CA (Homo sapiens, UniProt P42336)	cell-free assay	41
MAP2K2 (Homo sapiens, UniProt P36507)	cell-free assay	85
Myosin-IIIa (MYO3A, Homo sapiens, UniProt Q8NEV4)	binding	95
FYN (Homo sapiens, UniProt P06241)	cell-free assay	98
Tyrosine-protein kinase ABL1, phosphorylated (ABL1, Homo sapiens, UniProt P00519, Q252H)	cell-free assay	77
PLK2 (Homo sapiens, UniProt Q9NYY3)	cell-free assay	100
STK36 (Homo sapiens, UniProt Q9NRP7)	cell-free assay	93
ROS1 (Homo sapiens, UniProt P08922)	cell-free assay	74
CDK9 (Homo sapiens, UniProt P50750)	cell-free assay	82
PRKD1 (Homo sapiens, UniProt Q15139)	cell-free assay	95
FLT3 (Homo sapiens, UniProt P36888, D835Y)	cell-free assay	81
RET (Homo sapiens, UniProt P07949)	cell-free assay	83
